Results pooled from the literature.
Parts stem from different laboratories: compare values within a part only. Changes are numbered by the printed parent chain.

Block 1 — method: DHFR PCA, deep sequencing; medium: yeast; with: (+)-ABA 2500 µM; relative to: wild-type fitted maximum; reading: higher = stronger binding; quantity: relative binding score
Target: ABI1, truncated, D143A, DHFR fusion (Arabidopsis thaliana)
Setting: methotrexate growth selection, single substitutions
Starting sequence: PYL1, truncated, DHFR fusion (Arabidopsis thaliana); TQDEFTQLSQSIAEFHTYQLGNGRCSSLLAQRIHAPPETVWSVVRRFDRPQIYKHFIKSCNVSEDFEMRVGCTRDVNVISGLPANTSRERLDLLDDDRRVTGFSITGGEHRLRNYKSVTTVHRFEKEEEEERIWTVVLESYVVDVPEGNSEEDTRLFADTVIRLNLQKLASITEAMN; partner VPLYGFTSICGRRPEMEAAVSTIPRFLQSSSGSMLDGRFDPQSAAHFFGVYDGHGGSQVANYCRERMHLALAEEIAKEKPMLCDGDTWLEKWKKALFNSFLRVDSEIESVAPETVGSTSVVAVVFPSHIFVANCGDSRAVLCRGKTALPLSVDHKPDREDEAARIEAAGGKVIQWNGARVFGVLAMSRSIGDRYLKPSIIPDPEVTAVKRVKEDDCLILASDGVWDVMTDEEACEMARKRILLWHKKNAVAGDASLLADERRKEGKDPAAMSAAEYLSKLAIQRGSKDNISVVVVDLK
S59W: 91.9%
Q31D: 40.1%
G102N: 39.6%
T106V: 108%
A175W: 90.5%
G71I: 16.7%
G71P: 85%
I79K: 96.6%
H34Y: 98.7%
I162L: 91%
L169T: 45%
E89P: 6.23%
W134D: 106%
P83F: 41.8%
F5H: 102%
N114K: 97.8%
R98C: 95.5%
E89R: -6.55%
D97A: 101%
I57Q: 83.7%
G81C: 82%
L8C: 97.6%
R132S: 105%
F66L: 93.7%
R69T: 99.8%

Block 2 — target: CCNA2, cyclin fold, Cln2 fusion (human); method: yeast growth competition, sequencing; medium: yeast; setting: strong parent motif; relative to: not given; reading: higher = stronger binding; quantity: normalised enrichment score
Starting sequence: SGO1 docking peptide (human); PLAKRALKYTDEK; partner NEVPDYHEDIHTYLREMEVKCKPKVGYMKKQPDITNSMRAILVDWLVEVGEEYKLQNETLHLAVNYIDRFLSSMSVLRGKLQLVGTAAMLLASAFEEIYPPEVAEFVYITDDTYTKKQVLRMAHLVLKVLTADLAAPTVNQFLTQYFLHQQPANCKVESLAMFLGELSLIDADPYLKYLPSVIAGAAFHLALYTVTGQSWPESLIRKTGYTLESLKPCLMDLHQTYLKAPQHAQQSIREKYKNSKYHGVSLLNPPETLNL
PAAKRALKYTDEK [L2A]: 4.79
PLAKAALKYTDEK [R5A]: 0.178
ALAKRALKYTDEK [P1A]: 2.12
PLAKRALKYTAEK [D11A]: 2.39
PLAKRALKYTDAK [E12A]: 3.09
PLAKRAAKYTDEK [L7A]: 0.736

Block 3 — method: RNA Bind-n-Seq; molecule type: RNA; medium: in vitro; tested at: 1 µM; setting: whole 134-nt RNA, ends assumed; with: 150 mM KCl; relative to: input library; reading: higher = stronger binding; quantity: log2 enrichment
Target: Ras GTPase-activating protein-binding protein 1, RRM domain (G3BP1, Homo sapiens, UniProt Q13283)
Sequence of UniProt Q13283 (whole entry, looked up): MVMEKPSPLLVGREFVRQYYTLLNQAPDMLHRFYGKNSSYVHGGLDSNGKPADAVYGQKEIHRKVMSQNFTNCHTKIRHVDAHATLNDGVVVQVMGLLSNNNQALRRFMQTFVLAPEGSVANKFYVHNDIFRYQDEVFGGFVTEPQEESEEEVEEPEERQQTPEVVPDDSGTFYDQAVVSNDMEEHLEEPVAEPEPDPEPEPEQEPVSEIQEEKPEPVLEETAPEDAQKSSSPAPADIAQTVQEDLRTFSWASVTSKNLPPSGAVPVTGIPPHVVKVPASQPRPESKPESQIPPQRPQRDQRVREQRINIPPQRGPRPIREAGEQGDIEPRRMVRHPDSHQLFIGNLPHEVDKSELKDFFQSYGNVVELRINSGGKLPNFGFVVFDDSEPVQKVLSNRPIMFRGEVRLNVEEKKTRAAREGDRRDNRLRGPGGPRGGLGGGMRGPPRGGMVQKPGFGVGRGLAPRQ
Constant ends, left off below: GGGAGUUCUACAGUCCGACGAUC … UGGAAUUCUCGGGUGUCAAGG
CCUCAAGUCCUGUGCUACACAUCGUAUGUACCGAAUCGGAGGGAGGGGAGGGGAAAGUAUUAUGUUACGCCGUUCGGAUCUGCACUUCCA: -0.0259
UUAAAGUAGAGGAACAAAAAGAAGAACAGAAGGAGUUAGAGAAAUCUGAAAAAGAAGAGGAUGAGGAUGAUGAUAGGAAAUCUGAAGACG: 0.0679
UGGCCCGCCGUCCUGAGGAAGCUGAGGUUCACUGCGGUGCCCAAGAACCACCAGGCGGUCCGGAACCCGUGAGCGGCUGCCAGGGGCUCU: -0.498
CAAGUCCUGUGCUACACAUCGUAUGUACCGAAUCGGCCCGGGGCCCGGGGCCCGGGAAAGUAUUAUGUUACGCCGUUCGGAUCUGCACUU: -1.18
UCCUGUGCUACACAUCGUAUGUACCGAAUCGGGAAAAAAGGGAAAAAAGGGAAAAAAGGAAAGUAUUAUGUUACGCCGUUCGGAUCUGCA: 0.0605
GUCCUGUGCUACACAUCGUAUGUACCGAAUCGGGAGGGUUUUUUUGGGUUUUUUUGGGAAAGUAUUAUGUUACGCCGUUCGGAUCUGCAC: 0.0709
ACCAUGCAGGUGGGCAUCUUUGGGAAGUAAAGCAAGGGGGGGAUAGGGAGGGGGGUAACACUUUGGGAACAGGUGGUCCCAGGUCGUUUC: -0.472
AGUCCUGUGCUACACAUCGUAUGUACCGAAUCGGGGAAAGGGGUUUGGGGUUUGGGGAAAGUAUUAUGUUACGCCGUUCGGAUCUGCACU: 1.6
UAACUUUAGAGGAGGCUCUGAUGGAUAUGGCAGUGGACGUGGAUUUGGGGAUGGCUAUAAUGGGUAUGGAGGAGGACCUGGAGGUGGCAA: -0.814

Block 4 — method: universal PBM; molecule type: double-stranded DNA, one strand shown; medium: in vitro; tested at: 600 nM; reading: higher = stronger binding; quantity: E-score
Target: Sal-like protein 4, full length isoform A (SALL4, Homo sapiens, UniProt Q9UJQ4, residues 1-1053)
Sequence of UniProt Q9UJQ4 (whole entry, looked up): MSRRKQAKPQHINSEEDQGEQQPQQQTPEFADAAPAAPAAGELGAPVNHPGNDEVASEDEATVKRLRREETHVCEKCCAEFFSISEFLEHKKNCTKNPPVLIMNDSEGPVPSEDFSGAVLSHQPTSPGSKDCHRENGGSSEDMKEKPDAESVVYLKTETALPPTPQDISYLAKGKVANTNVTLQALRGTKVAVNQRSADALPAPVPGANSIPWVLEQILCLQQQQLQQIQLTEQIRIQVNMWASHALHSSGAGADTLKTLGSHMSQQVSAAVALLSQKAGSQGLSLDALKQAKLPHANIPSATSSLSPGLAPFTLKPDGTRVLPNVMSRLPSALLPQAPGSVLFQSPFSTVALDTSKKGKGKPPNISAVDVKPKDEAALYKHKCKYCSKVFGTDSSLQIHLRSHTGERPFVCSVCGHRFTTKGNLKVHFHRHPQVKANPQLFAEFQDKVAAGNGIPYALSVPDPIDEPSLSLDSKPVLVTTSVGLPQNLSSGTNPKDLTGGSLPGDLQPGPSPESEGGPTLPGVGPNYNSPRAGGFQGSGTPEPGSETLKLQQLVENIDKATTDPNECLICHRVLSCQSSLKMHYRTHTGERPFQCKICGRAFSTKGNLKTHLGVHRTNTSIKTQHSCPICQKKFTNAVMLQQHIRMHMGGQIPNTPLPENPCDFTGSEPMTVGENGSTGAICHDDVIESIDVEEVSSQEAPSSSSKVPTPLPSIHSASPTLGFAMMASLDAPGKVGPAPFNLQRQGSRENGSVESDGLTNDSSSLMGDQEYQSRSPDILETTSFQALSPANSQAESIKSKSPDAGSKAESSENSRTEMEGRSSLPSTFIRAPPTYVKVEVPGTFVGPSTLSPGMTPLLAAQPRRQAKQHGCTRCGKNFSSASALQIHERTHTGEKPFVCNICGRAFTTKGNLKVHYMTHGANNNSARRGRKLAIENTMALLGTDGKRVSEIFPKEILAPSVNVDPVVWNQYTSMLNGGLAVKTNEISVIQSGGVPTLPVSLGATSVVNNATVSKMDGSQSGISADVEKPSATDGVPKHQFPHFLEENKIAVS
Setting: 8-mer, flanks averaged, mean of replicates
CTTAATAC: 0.208
CCGAAACC: -0.29
TACGGTGA: 0.101
ACAAAAAG: 0.203
CCATAGAG: -0.0391
GGTGCGCA: -0.0923
ACACAGCT: -0.0433
GAAGTATC: 0.189
CCTACCCC: -0.324
CGATTCCA: -0.0106
ACTTTGCG: -0.147
GCCTCCGA: -0.239
ATACGCCC: -0.127
GCGAGCCC: -0.376
CAGTCATA: 0.256
CGCTATGC: -0.13
ACATCAGG: 0.069
CGATAGTC: 0.0274
CTGGATTC: -0.166
ATGAAGTC: 0.0441
ATCGGCCA: -0.188
GTCGAACA: -0.0623
AAACATTT: 0.296
AGACACCA: 0.0504
CTGGCCAA: -0.191

Block 5 — target: CEBPD, bZIP domain (human); method: DHFR protein complementation; medium: yeast; relative to: wild-type JUN-FOS pair; reading: higher = stronger binding; quantity: binding fitness
Setting: single substitutions, most at no-binding floor
Starting sequence: JUN, bZIP domain (human); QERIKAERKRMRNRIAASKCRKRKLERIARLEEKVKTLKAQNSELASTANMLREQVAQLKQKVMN; partner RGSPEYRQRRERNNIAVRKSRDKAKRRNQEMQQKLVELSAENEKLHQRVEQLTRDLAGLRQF
A46H: -1.33 natural log
R30K: -1.31 natural log
L38H: -1.47 natural log
K34W: -1.34 natural log
K36H: -1.42 natural log
L45Y: -1.49 natural log
S43C: -1.35 natural log
V35T: -1.45 natural log
S43A: -1.24 natural log
R30N: -1.34 natural log
K36M: -1.34 natural log
Q41C: -1.48 natural log
E54Y: -1.52 natural log
Q41F: -1.37 natural log
N42L: -1.45 natural log
S47T: -1.27 natural log
K36T: -1.44 natural log
K39D: -1.39 natural log
L45G: -1.48 natural log
K39R: -1.29 natural log
E44A: -1.4 natural log
A29E: -1.31 natural log
T37E: -1.31 natural log

A few entries again (block 4):
AGACACCA: 0.0504
GTCGAACA: -0.0623
AAACATTT: 0.296
ATCGGCCA: -0.188
ACACAGCT: -0.0433
TACGGTGA: 0.101
CAGTCATA: 0.256
GGTGCGCA: -0.0923
ACTTTGCG: -0.147
CCATAGAG: -0.0391
ACAAAAAG: 0.203
CGCTATGC: -0.13
GAAGTATC: 0.189
CTGGCCAA: -0.191
CTGGATTC: -0.166
